Measurements of several laboratories.
A part holds a random share of what one study measured.

Series 1 — cell line: HEK-293T; effect on: pseudovirus infection; organism: VSV pseudotyped with SARS-CoV-2 spike; concentration: 10 µM; time: 16 h; baseline: vehicle-treated; endpoint: GFP-positive cells
COc1cc2c(Nc3ccc(Br)cc3F)ncnc2cc1OCC1CCN(C)CC1: 20.3%
CN(C)CC/C=C1/c2ccccc2Sc2ccc(Cl)cc21: 27.4%
CN1CCc2nc(C(=O)N[C@@H]3C[C@@H](C(=O)N(C)C)CC[C@@H]3NC(=O)C(=O)Nc3ccc(Cl)cn3)sc2C1: 66.5%

Series 2 — effect on: enzyme activity; action: inhibitor; concentration: 20 µM; endpoint: inhibition
Target: Replicase polyprotein 1ab, polymerase (rep, Severe acute respiratory syndrome coronavirus 2, UniProt P0DTD1)
CN1CCCN(C(c2ccccc2)c2ccc(Cl)cc2)CC1 (stereo not drawn): 1.59%
CN1CCN2c3c(cccc31)[C@@H]1CN(CCCC(=O)c3ccc(F)cc3)CC[C@@H]12: 1.58%
c1ccc(-c2ncc(CN3CCN(c4ncccn4)CC3)[nH]2)cc1: -15.6%
CCOC(=O)[C@H](CCc1ccccc1)N[C@H]1CS[C@H](c2cccs2)CN(CC(=O)O)C1=O: -5.93%
CCOC(=S)SSC(=S)OCC: -9.93%
Cc1nc(N(C)C(=O)Cc2ccc(-c3ccccn3)cc2)sc1S(N)(=O)=O: 2.09%
CC[N+](CC)(CC(=O)Nc1c(C)cccc1C)Cc1ccccc1: -4.1%
CCCNC(=O)N1N=C(c2ccc(N)cc2)c2cc3c(cc2C1C)OCO3 (stereo not drawn): -1.52%
COc1ccc(-c2cc(=O)c3c(O)cc(O)cc3o2)cc1O: 16.8%
Cc1cc(C)c2c(N)c(C(=O)NCc3ccc(Cl)cc3)sc2n1: 1%
COc1ccc(C(=O)N2CCN(c3ccc4c(c3)CCC(=O)N4)CC2)cc1OC: 1.4%
Cc1cc(NC(=O)NCCN2CCC(O)(Cc3ccccc3)CC2)c2ccccc2n1: -8.15%
CCn1nc(C2CCN(C(=O)CCO)CC2)nc1-c1cnc(N)c(-c2nnc(C(C)(C)C)o2)n1: 5.63%
CC(C)(C)C(=O)CN1C(=O)[C@H](NC(=O)Nc2cccc(C(=O)O)c2)CN(C2CCCCC2)c2ccccc21: 0.16%
OCc1ccc(O[C@@H]2O[C@H](CO)[C@@H](O)[C@H](O)[C@H]2O)cc1: -2.74%
CC(C)(C)CC(C)(C)c1ccc(O)c(Cc2ccc(Cl)cc2Cl)c1: -0.79%
CN[C@@H](C)[C@H]1[C@H](O)C[C@@]2(C)[C@@H]3CC[C@H]4C(C)(C)[C@@H](NC)CC[C@@]45C[C@@]35CC[C@]12C: -0.94%
Cc1cc(-c2nc3cc(F)ccc3s2)ccc1NC(=O)[C@@H](N)CCCCN: -1.53%
CCCCC1C(=O)N(c2ccccc2)N(c2ccc(O)cc2)C1=O (stereo not drawn): 12.6%

Series 3 — method: RNA Bind-n-Seq; form: RNA; medium: in vitro; concentration: 365 nM; baseline: no-protein control; reading: higher = stronger binding; endpoint: RBNS enrichment (R)
Target: RNA binding protein fox-1 homolog 2, RRM domain, GST-SBP tag (RBFOX2, Homo sapiens, UniProt O43251-10, residues 100-194)
Setting: natural RNA segment, single round, ends assumed
Shared flanks, not repeated: GGGAGUUCUACAGUCCGACGAUC … UGGAAUUCUCGGGUGCCAA
Construct (chain): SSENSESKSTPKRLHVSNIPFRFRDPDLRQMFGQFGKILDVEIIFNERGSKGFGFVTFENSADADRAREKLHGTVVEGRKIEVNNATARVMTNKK
UUGUACAAAUAAGGGACUGAUGUUCUGUUUCUUGUAAUUAGAAAUAAACAUUAAUACAGUGUUCUUCUUUUCUAUUGCUGGUGAUAUCUGUUUCUAAUUUUAAAACACUG: 0.367
AUAUUGGACUUUUUUGAGCUUUAUCGUGGUUGUUAAUUUGAAGUAAUAAAGUAGAAAAGAUAAAGUGUGCAGGCAGCCCUUUGUCCACCUCUGUGCCCUUAGGGCCUCUC: 1.1
GAAAUGCAUCCAUUCCUCAGGGACAGAGACACCUGCACCUCCCCCCACUGCAGGCCCCGCUUGUCCAGCGCCUAGUGGGGUCUCCCUCUCCUGCCUACUCACGAUAAAUA: 6.41
AAGUCCUUGUGGUAGCCCUGGGGUAGCCUGUAGUAGACUCGGGUCCUGUCCACAGCCCUAGCUGCCAGCAAUGCUGUCCUCACAGAGGCAUAGUCGCCCCCAGCUGGGUU: 0.362
AGGAUGAGAGUUAUACUCCUGUUGUCAAGGGAGUAUUGUGUGGUAUGUUCGGGGCAUAUUGAACAAGAAACCACUGUGUGGUAUGGGGAGGGUUGGGCCUGUUGGGGCCA: 3
UCUUACACUGUAAGCCUUGUUGCUUUGCCCCAACAAUUGUAAUUUGAUUAUAGCUAUGAGCCUUAUGGUAGACACUAUGUACCCUCUGCGGUGUAAUUGCAUUAUAGCUA: 0.916
UGCUGGGCCAACUGGUCACCCUCACACAGCACAGAGGGGGCUAGAGGGAACAGCCUCCUGGGUCUUCCUUCUGGUCAUCUCCUUGGGGCAGCACAGGACCACUUCAUGGC: 0.306
AAGUAUAAAUGAAGUCAUAAAAUGUUUCAAUGUUUUGCUGAGUACCUGUUUGUAUUUAUAAAAAACAUGAACACAGGUCCUAAUAAAGAGAUGCCUAAGGCGGUAACUCU: 0.364

Series 4 — method: protein-binding microarray; form: double-stranded DNA, one strand shown; medium: in vitro; concentration: 940 nM top; setting: 60-bp whole probe; with: salmon DNA 0.4 mg/ml; baseline: random background probes; reading: higher = stronger binding; endpoint: fitted relative affinity; shared flanks, not repeated: GCCTAGCACT … GTCTTGATTCGCTTGACGCTGCTG
Target: Interferon regulatory factor 5, full length, phosphomimetic (IRF5, Homo sapiens, UniProt Q13568-2, residues 1-514, S451D/S453D/S456D/S462D)
CATCTTATCCTATCAGACTGTGCTAG: 0.73 z-score
CATGTTTGTCCCTATTACTGTGCTAG: 1.24 z-score
TAAATATCAGACTGGATTAGTGCTAG: -0.436 z-score
TAGATTTTGGGACTGGATTAGTGCTA: -0.165 z-score
TAAGACTGGACACTGGGTTAGTGCTA: -0.173 z-score
TAGATTTCGACACTGGGTTAGTGCTA: 0.507 z-score
TAGATCTCAGTATCGATTCGTGCTAG: 4.51 z-score
TAGGATTCGACACTGGGTTAGTGCTA: -0.0608 z-score

Further values, each from its own experiment
CN1C2=CC(=O)/C(=N\NC(N)=O)C=C2CC1S(=O)(=O)O (stereo not drawn) — inhibition (Replicase polyprotein 1ab, main protease (rep, Severe acute respiratory syndrome coronavirus 2, UniProt P0DTD1); enzyme activity, inhibitor; 20 µM, hit confirmation): -3.9%
